Assay results of several laboratories.
“And” joins repeats or separate records; there may be more than shown. Numbers after ± are the reported error.
DRD3: D(3) dopamine receptor (DRD3, Homo sapiens, UniProt P35462)
UniProt P35462, sequence (whole entry, looked up): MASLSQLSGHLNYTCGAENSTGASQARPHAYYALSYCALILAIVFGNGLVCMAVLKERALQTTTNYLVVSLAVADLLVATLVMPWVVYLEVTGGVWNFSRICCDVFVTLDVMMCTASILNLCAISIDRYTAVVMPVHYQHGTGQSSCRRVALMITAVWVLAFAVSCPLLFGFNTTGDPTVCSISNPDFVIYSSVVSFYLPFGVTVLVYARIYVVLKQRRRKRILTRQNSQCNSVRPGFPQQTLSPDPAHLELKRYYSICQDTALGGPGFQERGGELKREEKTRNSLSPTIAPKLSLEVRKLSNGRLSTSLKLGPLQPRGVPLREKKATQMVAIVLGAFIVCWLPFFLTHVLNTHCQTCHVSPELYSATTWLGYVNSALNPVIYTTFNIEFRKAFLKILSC
GIPR: Gastric inhibitory polypeptide receptor (GIPR, Homo sapiens, UniProt P48546)
UniProt P48546, sequence (whole entry, looked up): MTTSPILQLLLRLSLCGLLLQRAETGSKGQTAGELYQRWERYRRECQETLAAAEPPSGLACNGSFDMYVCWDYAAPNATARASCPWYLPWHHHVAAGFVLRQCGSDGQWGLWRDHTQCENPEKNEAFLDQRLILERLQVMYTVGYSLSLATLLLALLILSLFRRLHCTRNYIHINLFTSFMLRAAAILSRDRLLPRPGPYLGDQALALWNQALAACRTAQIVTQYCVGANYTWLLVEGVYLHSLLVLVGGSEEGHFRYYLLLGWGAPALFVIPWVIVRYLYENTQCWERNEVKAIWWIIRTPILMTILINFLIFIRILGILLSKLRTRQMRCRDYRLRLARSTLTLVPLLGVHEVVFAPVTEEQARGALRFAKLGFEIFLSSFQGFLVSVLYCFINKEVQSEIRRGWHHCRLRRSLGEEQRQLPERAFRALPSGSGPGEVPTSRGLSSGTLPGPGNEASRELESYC
Oprd1: Delta-type opioid receptor (Oprd1, Rattus norvegicus, UniProt P33533)
UniProt P33533, sequence (whole entry, looked up): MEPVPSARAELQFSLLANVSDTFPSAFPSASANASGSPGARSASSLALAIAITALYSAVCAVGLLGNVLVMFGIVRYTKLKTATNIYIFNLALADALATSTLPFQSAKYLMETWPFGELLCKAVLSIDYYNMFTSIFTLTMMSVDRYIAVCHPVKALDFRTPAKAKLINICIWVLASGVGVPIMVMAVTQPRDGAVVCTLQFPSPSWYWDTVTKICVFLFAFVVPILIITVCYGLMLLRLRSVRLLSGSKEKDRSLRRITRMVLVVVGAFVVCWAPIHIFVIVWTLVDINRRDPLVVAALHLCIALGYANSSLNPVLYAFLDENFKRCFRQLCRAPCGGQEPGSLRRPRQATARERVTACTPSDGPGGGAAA
Melanocortin receptor 4: Melanocortin receptor 4 (Mus musculus, UniProt P56450)
UniProt P56450, sequence (whole entry, looked up): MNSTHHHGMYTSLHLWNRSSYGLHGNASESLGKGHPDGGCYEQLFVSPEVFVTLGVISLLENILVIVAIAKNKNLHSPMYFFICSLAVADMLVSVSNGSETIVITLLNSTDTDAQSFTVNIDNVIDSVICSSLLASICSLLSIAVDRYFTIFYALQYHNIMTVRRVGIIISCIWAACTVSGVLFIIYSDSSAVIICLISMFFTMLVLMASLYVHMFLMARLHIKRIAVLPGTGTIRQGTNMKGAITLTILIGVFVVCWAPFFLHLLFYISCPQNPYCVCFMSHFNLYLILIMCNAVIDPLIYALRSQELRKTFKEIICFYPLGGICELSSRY
RXFP3: Relaxin-3 receptor 1 (RXFP3, Homo sapiens, UniProt Q9NSD7)
UniProt Q9NSD7, sequence (whole entry, looked up): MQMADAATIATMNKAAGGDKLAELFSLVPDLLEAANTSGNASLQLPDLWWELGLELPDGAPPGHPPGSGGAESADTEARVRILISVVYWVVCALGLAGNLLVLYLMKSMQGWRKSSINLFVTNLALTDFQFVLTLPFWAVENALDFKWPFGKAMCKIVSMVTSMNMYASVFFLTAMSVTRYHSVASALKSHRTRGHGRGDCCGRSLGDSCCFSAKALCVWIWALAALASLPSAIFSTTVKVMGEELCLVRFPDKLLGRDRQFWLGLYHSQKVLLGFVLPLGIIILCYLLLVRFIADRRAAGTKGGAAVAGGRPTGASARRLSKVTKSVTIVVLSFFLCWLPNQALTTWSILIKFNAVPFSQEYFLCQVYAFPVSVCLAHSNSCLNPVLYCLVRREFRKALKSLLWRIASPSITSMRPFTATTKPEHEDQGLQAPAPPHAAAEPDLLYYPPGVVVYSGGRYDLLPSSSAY
UniProt P43220, sequence (whole entry, looked up): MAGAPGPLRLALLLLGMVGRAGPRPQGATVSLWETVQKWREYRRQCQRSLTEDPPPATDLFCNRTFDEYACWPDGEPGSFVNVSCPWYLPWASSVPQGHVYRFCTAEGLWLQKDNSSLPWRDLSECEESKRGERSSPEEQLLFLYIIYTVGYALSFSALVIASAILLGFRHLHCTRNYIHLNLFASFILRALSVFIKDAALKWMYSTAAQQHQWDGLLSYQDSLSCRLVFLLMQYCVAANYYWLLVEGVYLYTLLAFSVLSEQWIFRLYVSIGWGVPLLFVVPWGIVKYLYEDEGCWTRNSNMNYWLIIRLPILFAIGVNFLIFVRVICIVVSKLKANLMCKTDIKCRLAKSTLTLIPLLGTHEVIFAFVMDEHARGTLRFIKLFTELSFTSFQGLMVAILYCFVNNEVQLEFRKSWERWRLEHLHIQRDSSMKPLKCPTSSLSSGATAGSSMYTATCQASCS
UniProt Q704Y3, sequence (whole entry, unmodified, looked up): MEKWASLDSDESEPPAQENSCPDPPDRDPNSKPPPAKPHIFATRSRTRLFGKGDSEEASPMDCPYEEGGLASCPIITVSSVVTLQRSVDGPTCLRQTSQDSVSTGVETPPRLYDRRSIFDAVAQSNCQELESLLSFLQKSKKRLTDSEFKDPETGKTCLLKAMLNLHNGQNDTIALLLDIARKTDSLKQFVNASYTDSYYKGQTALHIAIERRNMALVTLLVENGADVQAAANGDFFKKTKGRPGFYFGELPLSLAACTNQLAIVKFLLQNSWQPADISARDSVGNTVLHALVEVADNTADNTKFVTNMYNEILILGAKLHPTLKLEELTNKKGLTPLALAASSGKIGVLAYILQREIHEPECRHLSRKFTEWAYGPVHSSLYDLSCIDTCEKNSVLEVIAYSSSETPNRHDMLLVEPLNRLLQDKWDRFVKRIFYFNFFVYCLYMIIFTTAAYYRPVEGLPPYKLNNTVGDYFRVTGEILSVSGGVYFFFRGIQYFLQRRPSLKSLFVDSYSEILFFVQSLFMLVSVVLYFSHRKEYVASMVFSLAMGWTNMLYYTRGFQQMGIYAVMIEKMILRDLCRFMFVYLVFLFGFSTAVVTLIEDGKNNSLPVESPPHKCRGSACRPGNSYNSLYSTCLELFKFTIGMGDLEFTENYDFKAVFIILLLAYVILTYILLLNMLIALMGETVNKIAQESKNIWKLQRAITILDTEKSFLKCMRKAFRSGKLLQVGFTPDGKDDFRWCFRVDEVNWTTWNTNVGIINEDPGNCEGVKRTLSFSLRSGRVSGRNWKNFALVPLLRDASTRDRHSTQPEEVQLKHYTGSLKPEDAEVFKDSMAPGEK
UniProt P08482, sequence (whole entry, looked up): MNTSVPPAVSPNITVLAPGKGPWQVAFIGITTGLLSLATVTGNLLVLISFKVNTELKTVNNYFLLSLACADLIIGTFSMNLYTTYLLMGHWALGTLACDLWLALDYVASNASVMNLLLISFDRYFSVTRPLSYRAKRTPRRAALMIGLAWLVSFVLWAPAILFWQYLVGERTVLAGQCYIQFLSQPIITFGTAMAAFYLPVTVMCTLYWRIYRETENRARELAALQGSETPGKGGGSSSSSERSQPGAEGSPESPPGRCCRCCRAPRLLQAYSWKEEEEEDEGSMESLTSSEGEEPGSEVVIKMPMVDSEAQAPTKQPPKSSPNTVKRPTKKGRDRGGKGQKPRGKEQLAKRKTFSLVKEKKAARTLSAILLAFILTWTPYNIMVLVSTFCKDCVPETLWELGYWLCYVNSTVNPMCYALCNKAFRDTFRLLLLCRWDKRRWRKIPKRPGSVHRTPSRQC
UniProt P50391, sequence (whole entry, looked up): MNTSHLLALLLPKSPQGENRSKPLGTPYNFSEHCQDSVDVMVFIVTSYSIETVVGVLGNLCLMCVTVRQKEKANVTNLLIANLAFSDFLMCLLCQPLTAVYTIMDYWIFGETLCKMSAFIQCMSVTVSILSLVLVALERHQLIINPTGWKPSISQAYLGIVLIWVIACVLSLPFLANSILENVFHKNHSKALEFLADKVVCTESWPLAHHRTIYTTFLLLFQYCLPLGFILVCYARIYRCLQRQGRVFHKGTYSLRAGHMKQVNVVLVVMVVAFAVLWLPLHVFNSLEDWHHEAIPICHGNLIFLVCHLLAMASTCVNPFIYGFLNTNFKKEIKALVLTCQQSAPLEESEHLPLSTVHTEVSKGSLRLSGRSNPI
UniProt P21554, sequence (whole entry, looked up): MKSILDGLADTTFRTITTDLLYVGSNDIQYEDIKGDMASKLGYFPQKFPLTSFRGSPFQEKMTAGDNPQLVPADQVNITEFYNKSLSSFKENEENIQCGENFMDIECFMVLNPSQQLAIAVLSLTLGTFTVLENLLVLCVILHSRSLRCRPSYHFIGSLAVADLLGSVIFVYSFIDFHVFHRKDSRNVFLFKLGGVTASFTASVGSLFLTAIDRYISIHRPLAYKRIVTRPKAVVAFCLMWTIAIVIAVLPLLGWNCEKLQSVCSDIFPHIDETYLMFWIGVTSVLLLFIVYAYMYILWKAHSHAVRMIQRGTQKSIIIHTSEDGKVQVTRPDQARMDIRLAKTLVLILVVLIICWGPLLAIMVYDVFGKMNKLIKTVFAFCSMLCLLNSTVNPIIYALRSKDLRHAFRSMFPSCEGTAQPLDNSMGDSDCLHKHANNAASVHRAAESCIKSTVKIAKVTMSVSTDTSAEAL

CNC(C)CCc1ccccc1Cl (racemic)
EC50 (DRD3; β-arrestin recruitment, agonist): 6800 nM

CC[C@H](C)[C@H](NC(=O)[C@H](CO)NC(=O)[C@H](Cc1ccc(O)cc1)NC(=O)[C@H](CC(=O)O)NC(=O)[C@H](CO)NC(=O)[C@@H](NC(=O)[C@H](Cc1ccccc1)NC(=O)[C@@H](NC(=O)CNC(=O)[C@@H]1CCCN1C(=O)[C@H](C)NC(=O)[C@@H](N)Cc1ccc(O)cc1)[C@@H](C)O)[C@@H](C)CC)C(=O)N[C@@H](C)C(=O)N[C@@H](CCSC)C(=O)N[C@@H](CC(=O)O)C(=O)N[C@@H](CCCCN)C(=O)N[C@H](C(=O)N[C@@H](CCCNC(=N)N)C(=O)N[C@@H](CCC(N)=O)C(=O)N[C@@H](CCC(N)=O)C(=O)N[C@@H](CC(=O)O)C(=O)N[C@@H](Cc1ccccc1)C(=O)N[C@H](C(=O)N[C@@H](CC(N)=O)C(=O)N[C@@H](Cc1c[nH]c2ccccc12)C(=O)N[C@@H](CC(C)C)C(=O)N[C@@H](CC(C)C)C(=O)N[C@@H](C)C(=O)N[C@@H](CCC(N)=O)C(=O)N[C@@H](CCCCN)C(=O)NCC(=O)N[C@@H](CCCCN)C(=O)N[C@@H](CCCCN)C(=O)N[C@@H](CC(N)=O)C(=O)N[C@@H](CC(=O)O)C(=O)N[C@@H](Cc1c[nH]c2ccccc12)C(=O)N[C@@H](CCCCN)C(=O)N[C@@H](Cc1c[nH]cn1)C(=O)N[C@@H](CC(N)=O)C(=O)N[C@@H](CC(C)C)C(=O)N[C@H](C(=O)N[C@@H](CCC(N)=O)C(=O)O)[C@@H](C)O)C(C)C)[C@@H](C)CC
EC50 (GIPR; cAMP, agonist): 12 nM

CC(N)CCc1ccc(Cl)cc1 (racemic)
EC50 (DRD3; phosphorylation in cells, agonist, western blot): 84.6 nM

CN1CCCCC1Cn1c2ccccc2c2cc(C(=O)c3cccc4ccccc34)ccc21 (centres unmarked)
EC50 (CNR1 (Homo sapiens, UniProt P21554); GTPγS binding, agonist, radiometric; cell membranes): 263 nM

Cc1cc(O)cc(C)c1CC(N)C(=O)NC1CCNc2c(CCc3ccccc3)cc(Cc3ccccc3)cc21 (centres unmarked)
EC50 (Oprd1; GTPγS binding, agonist, radiometric; cell membranes): 33 nM

CC(C)[C@H](NC(=O)[C@H](CC(N)=O)NC(=O)[C@H](Cc1ccc(O)cc1)NC(=O)[C@@H](N)CCCCN)C(=O)N[C@H]1CSC(=O)[C@H](Cc2ccccc2)NC(=O)[C@H](Cc2ccc(O)cc2)NC(=O)[C@H](CO)NC(=O)[C@H](C)NC1=O
EC50 (Accessory gene regulator protein C (Staphylococcus epidermidis, UniProt O86861)): 71.8 nM

CC[C@H](C)[C@H](NC(=O)[C@H](CO)NC(=O)[C@H](Cc1ccc(O)cc1)NC(=O)[C@H](CC(=O)O)NC(=O)[C@H](CO)NC(=O)[C@@H](NC(=O)[C@H](Cc1ccccc1)NC(=O)[C@@H](NC(=O)CNC(=O)[C@H](CCC(=O)O)NC(=O)C(C)(C)NC(=O)[C@@H](N)Cc1ccc(O)cc1)[C@@H](C)O)[C@@H](C)CC)C(=O)N[C@@H](C)C(=O)N[C@@H](CCSC)C(=O)N[C@@H](CC(=O)O)C(=O)N[C@@H](CCCCN)C(=O)N[C@H](C(=O)N[C@@H](CCCNC(=N)N)C(=O)N[C@@H](CCC(N)=O)C(=O)N[C@@H](CCC(N)=O)C(=O)N[C@@H](CC(=O)O)C(=O)N[C@@H](Cc1ccccc1)C(=O)N[C@H](C(=O)N[C@@H](CC(N)=O)C(=O)N[C@@H](Cc1c[nH]c2ccccc12)C(=O)N[C@@H](CC(C)C)C(=O)N[C@@H](CC(C)C)C(=O)N[C@@H](C)C(=O)N[C@@H](CCC(N)=O)C(=O)N[C@@H](CCCCN)C(=O)NCC(=O)N[C@@H](CCCCN)C(=O)N[C@@H](CCCCN)C(=O)N[C@@H](CC(N)=O)C(=O)N[C@@H](CC(=O)O)C(=O)N[C@@H](Cc1c[nH]c2ccccc12)C(=O)N[C@@H](CCCCN)C(=O)N[C@@H](Cc1c[nH]cn1)C(=O)N[C@@H](CC(N)=O)C(=O)N[C@H](C(=O)N[C@H](C(=O)N[C@@H](CCC(N)=O)C(=O)O)[C@@H](C)O)[C@@H](C)CC)C(C)C)[C@@H](C)CC
EC50 (GIPR; reporter gene, agonist, luciferase): 0.003 nM

CC(=O)N[C@@H](CCCNC(=N)N)C(=O)N[C@@H](CCCNC(=N)N)C(=O)N[C@H](C(=O)N1Cc2ccccc2C[C@H]1C(N)=O)[C@H](c1ccccc1)c1c[nH]c2ccccc12
EC50 (Melanocortin receptor 4; cAMP, agonist, AlphaScreen): > 100000 nM

C[C@@H]1NC(=O)[C@H](CC(N)=O)N2C[C@H](Cc3c[nH]c4ccccc34)NC(=O)[C@H](CSCC2=O)NC(=O)[C@H](CCCNC(=N)N)NC(=O)[C@@H](Cc2ccccc2)NC(=O)[C@H](Cc2c[nH]cn2)NC(=O)[C@@H](NC(=O)[C@@H](N)Cc2ccc(O)cc2)CSSC[C@@H](C(=O)N[C@@H](Cc2ccc(O)cc2)C(N)=O)NC(=O)[C@H](Cc2ccccc2)NC1=O
EC50 (Melanocortin receptor 4; reporter gene, agonist): ~5 nM and 4.7 nM

CC[C@H](C)[C@H](NC(=O)[C@H](Cc1ccccc1)NC(=O)[C@H](CCC(=O)O)NC(=O)[C@H](CCCCN)NC(=O)[C@H](C)NC(=O)[C@H](C)NC(=O)[C@H](CCC(N)=O)NC(=O)CNC(=O)[C@H](CCC(=O)O)NC(=O)[C@H](CC(C)C)NC(=O)[C@H](Cc1ccc(O)cc1)NC(=O)[C@H](CO)NC(=O)[C@H](CO)NC(=O)[C@@H](NC(=O)[C@H](CC(=O)O)NC(=O)[C@H](CO)NC(=O)[C@@H](NC(=O)[C@H](Cc1ccccc1)NC(=O)[C@@H](NC(=O)CNC(=O)[C@H](CCC(=O)O)NC(=O)C(C)(C)NC(=O)N(N)Cc1c[nH]cn1)[C@@H](C)O)[C@@H](C)O)C(C)C)C(=O)N[C@@H](C)C(=O)N[C@@H](Cc1c[nH]c2ccccc12)C(=O)N[C@@H](CC(C)C)C(=O)N[C@H](C(=O)N[C@@H](CCCNC(=N)N)C(=O)NCC(=O)N[C@@H](CCCNC(=N)N)C(=O)NCC(=O)O)C(C)C
EC50 (GLP1R (Homo sapiens, UniProt P43220); reporter gene, agonist, luciferase): 0.3 to 0.7 nM

CC[C@H](C)[C@H](NC(=O)[C@H](CC(N)=O)NC(=O)[C@H](Cc1ccccc1)NC(=O)[C@H](Cc1ccccc1)NC(=O)[C@@H](NC(=O)[C@H](CC(N)=O)NC(=O)[C@H](Cc1c[nH]cn1)NC(=O)[C@@H](NC(=O)[C@H](CCC(N)=O)NC(=O)[C@H](CCCNC(=N)N)NC(=O)[C@@H](NC(=O)[C@@H](N)CCC(=O)O)[C@@H](C)CC)[C@@H](C)O)[C@@H](C)CC)C(=O)N[C@@H](Cc1ccccc1)C(=O)N[C@@H](CCCCN)C(=O)N[C@@H](CCCNC(=N)N)C(=O)N[C@@H](CCCNC(=N)N)C(=O)O
EC50 (histidine kinase ComD (Streptococcus pneumoniae serotype 4, UniProt A0A0H2US84); reporter gene, agonist; Streptococcus pneumoniae, TIGR4 comX::lacZ; 30 min, pH 7.3, 37 °C): > 1000 nM

CC[C@H](C)[C@H](NC(=O)[C@]1(C)CCCC=CCCC[C@](C)(NC(=O)[C@H](CCC(=O)O)NC(=O)[C@H](CCCNC(=N)N)NC(=O)CNC(=O)[C@H](CO)NC(=O)[C@H](CC(C)C)NC(=O)[C@@H](N)CCCNC(=N)N)C(=O)N[C@@H]([C@@H](C)CC)C(=O)N[C@@H](CCCNC(=N)N)C(=O)N[C@@H](C)C(=O)N1)C(=O)N[C@@H](Cc1ccccc1)C(=O)N[C@H](C(=O)N[C@@H](CO)C(=O)NCC(=O)NCC(=O)N[C@@H](CO)C(=O)N[C@@H](CCCNC(=N)N)C(=O)N[C@@H](Cc1c[nH]c2ccccc12)C(=O)O)[C@@H](C)O
EC50 (RXFP3; cAMP, agonist): 42.6 nM

Cc1cc(O)cc(C)c1CC(N)C(=O)NC1CCNc2c(Br)cc(Cc3ccccc3)cc21 (centres unmarked)
EC50 (Oprd1; GTPγS binding, agonist, radiometric; cell membranes): 36 nM

NC(N)=NCCC[C@H](NC(=O)[C@H](Cc1ccccc1)NC(=O)[C@@H]1CCCN1C(=O)[C@H](CO)NC(=O)[C@H](Cc1ccccc1)NC(=O)CNC(=O)[C@@H]1CCCN1C(=O)[C@@H]1CCCN1C(=O)[C@@H](N)CCCN=C(N)N)C(=O)O
EC50 (Bradykinin receptor B2 (Bos taurus, UniProt F1MWK0); calcium response, agonist, fura-2; primary bovine aortic endothelial cells): 4 nM

Cn1ccc(-c2ccc(Cn3cc(C(=O)N[C@H]4CCCC[C@@H]4O)c4c(F)cc(F)cc43)cn2)n1
EC50 (Chrm1 (Rattus norvegicus, UniProt P08482); calcium signal, agonist): 4600 nM

CC(=O)N[C@@H](CCCNC(=N)N)C(=O)N[C@H](Cc1ccc(O)cc1)C(=O)N[C@@H](CCCNC(=N)NC(=O)NCCCCN)C(=O)N[C@@H](CC(C)C)C(=O)N[C@@H](CCCNC(=N)N)C(=O)N[C@@H](Cc1ccc(O)cc1)C(N)=O
EC50 (NPY4R (Homo sapiens, UniProt P50391); β-arrestin 1 recruitment, agonist; HEK293T): 2050 ± 780 nM

CC[C@H](C)[C@@H]1NC(=O)[C@@H](NC(=O)[C@H](CCC(=O)O)NC(=O)[C@H](CCCNC(=N)N)NC(=O)CNC(=O)[C@H](CO)NC(=O)[C@H](CC(C)C)NC(=O)[C@H](CCCNC(=N)N)NC(=O)[C@@H](NC(=O)CNC(=O)[C@H](Cc2ccc(O)cc2)NC(=O)[C@@H]2CCCN2C(=O)[C@H](C)NC(=O)[C@H](C)NC(=O)[C@@H](N)CCCNC(=N)N)C(C)C)CSSC[C@@H](C(=O)N[C@H](C(=O)N[C@@H](Cc2ccccc2)C(=O)N[C@H](C(=O)N[C@@H](CO)C(=O)NCC(=O)NCC(=O)N[C@@H](CO)C(=O)N[C@@H](CCCNC(=N)N)C(=O)N[C@@H](Cc2c[nH]c3ccccc23)C(=O)O)[C@@H](C)O)[C@@H](C)CC)NC(=O)[C@H](C)NC(=O)[C@H](CCCNC(=N)N)NC1=O
EC50 (RXFP3; cAMP, agonist): 16500 nM

Cc1cc(O)cc(C)c1C[C@H](N)C(=O)N[C@@H](C(=O)NCC(=O)N[C@@H](Cc1ccc2ccccc2c1)C(=O)N[C@@H](CC(C)C)C(=O)N[C@@H](CO)C(N)=O)[C@H](C)O
EC50 (Oprd1; GTPγS binding, agonist, radiometric; cell membranes): 0.3 nM

CCCCC/C=C\C/C=C\C/C=C\C/C=C\CCCC(=O)NCCc1ccc(O)c(O)c1
EC50 (Trpv1 (Mus musculus, UniProt Q704Y3, T551V); ion current, agonist, whole-cell patch clamp; 24 °C, T551V, +80 mV): 90 ± 40 nM

CC(C)C[C@@H]1NC(=O)[C@H](Cc2ccc(O)cc2)NC(=O)[C@H](CC(N)=O)NC(=O)[C@H](CO)NC(=O)[C@@H](NC(=O)[C@@H]2CCCN2C(=O)[C@H](CC(N)=O)NC(=O)[C@H](Cc2ccc(O)cc2)NC(=O)[C@@H](N)CCCCN)CSC1=O
EC50 (Accessory gene regulator protein C (Staphylococcus epidermidis, UniProt Q8VSX2)): > 2000 nM
